Experimental data collected from several papers.
Target: Protein deacetylase HDAC6 (HDAC6, Homo sapiens, UniProt Q9UBN7)
Action: inhibitor
Residues used in one study (Q9UBN7 1-1215): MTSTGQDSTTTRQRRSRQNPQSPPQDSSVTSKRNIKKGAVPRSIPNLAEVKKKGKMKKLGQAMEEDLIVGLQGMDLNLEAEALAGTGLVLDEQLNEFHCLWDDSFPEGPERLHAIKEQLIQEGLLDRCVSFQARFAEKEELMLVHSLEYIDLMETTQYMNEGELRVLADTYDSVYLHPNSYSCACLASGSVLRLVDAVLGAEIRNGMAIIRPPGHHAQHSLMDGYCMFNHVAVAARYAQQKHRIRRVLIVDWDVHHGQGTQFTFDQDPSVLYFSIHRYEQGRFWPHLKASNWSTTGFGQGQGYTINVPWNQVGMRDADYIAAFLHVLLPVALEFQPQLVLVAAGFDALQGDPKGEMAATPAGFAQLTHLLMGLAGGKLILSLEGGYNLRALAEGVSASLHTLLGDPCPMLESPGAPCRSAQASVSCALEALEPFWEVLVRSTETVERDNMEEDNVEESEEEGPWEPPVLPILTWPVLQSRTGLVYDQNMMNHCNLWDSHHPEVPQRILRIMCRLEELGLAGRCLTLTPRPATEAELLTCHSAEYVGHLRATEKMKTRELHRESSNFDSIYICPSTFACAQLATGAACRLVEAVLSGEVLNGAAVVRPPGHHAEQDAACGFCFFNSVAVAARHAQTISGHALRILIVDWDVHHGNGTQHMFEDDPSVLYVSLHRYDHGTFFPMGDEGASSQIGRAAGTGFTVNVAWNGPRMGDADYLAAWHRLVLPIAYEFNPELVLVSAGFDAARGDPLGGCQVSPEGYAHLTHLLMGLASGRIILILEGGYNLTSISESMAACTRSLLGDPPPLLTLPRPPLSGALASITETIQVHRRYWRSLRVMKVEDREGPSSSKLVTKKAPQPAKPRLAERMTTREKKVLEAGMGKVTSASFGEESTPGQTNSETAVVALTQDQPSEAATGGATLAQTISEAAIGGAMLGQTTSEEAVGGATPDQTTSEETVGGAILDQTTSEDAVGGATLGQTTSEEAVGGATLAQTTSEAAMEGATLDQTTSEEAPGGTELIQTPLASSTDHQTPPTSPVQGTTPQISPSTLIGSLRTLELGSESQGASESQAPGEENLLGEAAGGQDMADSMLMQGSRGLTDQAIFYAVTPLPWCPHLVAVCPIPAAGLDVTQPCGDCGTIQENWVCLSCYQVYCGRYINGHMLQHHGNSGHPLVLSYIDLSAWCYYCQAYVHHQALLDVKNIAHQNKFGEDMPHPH

`CC(CCC(=O)NCc1ccc(C(=O)NCc2ccc(C(=O)NO)cc2)cc1)C1CCC2C3C(O)CC4CC(O)CCC4(C)C3CCC12C` (stereo not drawn) has an IC50 of 4.26 nM (enzyme activity, fluorescence).
With `O=C(NO)c1ccc(CNC(=O)c2ccccc2)cc1` the IC50 was 25 nM (enzyme activity, fluorescence).
For `O=c1c2ccccc2[s+]([O-])n1-c1ccccc1` (stereo not drawn), the IC50 was over 10000 nM (enzyme activity).
`COCCn1cc(COc2cccc(Cc3cnc(NC(=O)C(C)c4ccc(CC(C)C)cc4)s3)c2)nn1` (stereo not drawn) has an IC50 of over 100000 nM (enzyme activity, fluorescence).
`O=C(NO)C1=CCCC1` has an IC50 of 455 nM (enzyme activity, fluorescence).
The IC50 of `COCc1cc2c(cn1)CN(C(=O)Nc1nc(-c3ccc(F)cc3)ccc1N)C2` is reported as over 30000 nM (deacetylase activity, recombinant enzyme).
`O=C(C=Cc1ccc2c(c1)C(=O)N(Cc1ccccc1)CC2)NO` has an IC50 of 180 nM (enzyme activity).
`COc1ccc(NS(=O)(=O)c2cccc(/C=C/C(=O)NO)c2)cc1` gave an IC50 of 700 nM (enzyme activity, fluorescence).
For `COCCn1cc(COc2cccc(Cc3cnc(NC(=O)CSc4nc(C)cc(C)n4)s3)c2)nn1`, the IC50 was over 100000 nM (enzyme activity, fluorescence).
With `CC(CCC(=O)NCc1ccc(C(=O)NO)cc1)C1CCC2C3C(O)CC4CC(O)CCC4(C)C3CCC12C` (stereo not drawn) the IC50 was 58 nM (enzyme activity, fluorescence).
`N/C(=N\O)c1ccc2c(c1)N(Cc1ccc(C(=O)NO)cc1)c1ccccc1O2` has an IC50 of 6 nM (enzyme activity).
The IC50 of `CCC(=O)CCCCC[C@@H]1NC(=O)[C@@H](C)n2nncc2[C@@H](CC(C)C)NC(=O)[C@H](Cc2c[nH]c3ccccc23)NC1=O` is reported as over 10000 nM (enzyme activity).
For `Cc1cc(C)nc(SC(C)C(=O)Nc2ncc(Cc3cccc4ccccc34)s2)n1` (stereo not drawn), the IC50 was over 100000 nM (enzyme activity, fluorescence).
With `N/C(=N\O)c1ccc2c(c1)Oc1ccccc1N2Cc1cccc(C(=O)NO)c1` the IC50 was 797 nM (enzyme activity).
With `O=c1c2ccccc2sn1-c1ccccc1` the IC50 was 2890 nM (enzyme activity).
`O=C(/C=C/c1ccc(Cl)cc1Cl)NO` gave an IC50 of 710 nM (enzyme activity, fluorescence).
`O=C(CCCCCCC(=O)NC[c-]1cccc1)NO.[Fe+2].c1cc[cH-]c1` has an IC50 of 6.7 nM (enzyme activity, fluorescence).
For `O=c1c2ccccc2on1-c1ccccc1`, the IC50 was over 10000 nM (enzyme activity).
The IC50 of `Cc1ncc2c(n1)CN(C(=O)Nc1nc(-c3cccs3)ccc1N)C2` is reported as over 30000 nM (deacetylase activity, recombinant enzyme).
With `O=C(CCCCCCC(=O)Nc1ccc(-[c-]2cccc2)cc1)NO.[Fe+2].c1cc[cH-]c1` the IC50 was 0.09 nM (enzyme activity, fluorescence).
`O=c1[nH]sc2ccccc12` gave an IC50 of 3200 nM (enzyme activity).

A few entries again:
With `O=C(NO)c1ccc(CNC(=O)c2ccccc2)cc1` the IC50 was 25 nM (enzyme activity, fluorescence).
